Measurements pooled from the literature.
Protocols differ between the studies behind these lines. “And” joins repeats or separate records; there may be more than shown. ± marks the error that the study gave.
Chain of UniProt Q61205 (whole entry, looked up): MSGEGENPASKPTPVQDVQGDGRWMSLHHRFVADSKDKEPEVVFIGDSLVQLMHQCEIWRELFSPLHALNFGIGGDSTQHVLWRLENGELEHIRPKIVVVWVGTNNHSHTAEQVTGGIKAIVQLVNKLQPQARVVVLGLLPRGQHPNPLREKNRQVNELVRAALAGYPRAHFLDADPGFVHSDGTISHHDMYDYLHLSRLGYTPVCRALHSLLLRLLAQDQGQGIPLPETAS
Chain of UniProt Q00987 (whole entry, looked up): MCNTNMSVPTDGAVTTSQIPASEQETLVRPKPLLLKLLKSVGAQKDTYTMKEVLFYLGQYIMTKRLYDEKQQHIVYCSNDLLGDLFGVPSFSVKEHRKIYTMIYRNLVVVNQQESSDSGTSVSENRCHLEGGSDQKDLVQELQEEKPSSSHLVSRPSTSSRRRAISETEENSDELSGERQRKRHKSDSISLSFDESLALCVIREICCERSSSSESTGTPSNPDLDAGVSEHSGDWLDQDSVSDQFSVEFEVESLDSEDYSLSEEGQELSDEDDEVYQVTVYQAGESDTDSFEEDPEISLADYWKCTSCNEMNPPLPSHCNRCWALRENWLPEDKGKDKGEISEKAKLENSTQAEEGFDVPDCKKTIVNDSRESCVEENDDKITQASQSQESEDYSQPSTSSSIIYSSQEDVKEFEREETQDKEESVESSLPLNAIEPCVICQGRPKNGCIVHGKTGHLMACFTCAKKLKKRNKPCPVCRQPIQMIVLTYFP
Chain of UniProt Q9UM07 (whole entry, looked up): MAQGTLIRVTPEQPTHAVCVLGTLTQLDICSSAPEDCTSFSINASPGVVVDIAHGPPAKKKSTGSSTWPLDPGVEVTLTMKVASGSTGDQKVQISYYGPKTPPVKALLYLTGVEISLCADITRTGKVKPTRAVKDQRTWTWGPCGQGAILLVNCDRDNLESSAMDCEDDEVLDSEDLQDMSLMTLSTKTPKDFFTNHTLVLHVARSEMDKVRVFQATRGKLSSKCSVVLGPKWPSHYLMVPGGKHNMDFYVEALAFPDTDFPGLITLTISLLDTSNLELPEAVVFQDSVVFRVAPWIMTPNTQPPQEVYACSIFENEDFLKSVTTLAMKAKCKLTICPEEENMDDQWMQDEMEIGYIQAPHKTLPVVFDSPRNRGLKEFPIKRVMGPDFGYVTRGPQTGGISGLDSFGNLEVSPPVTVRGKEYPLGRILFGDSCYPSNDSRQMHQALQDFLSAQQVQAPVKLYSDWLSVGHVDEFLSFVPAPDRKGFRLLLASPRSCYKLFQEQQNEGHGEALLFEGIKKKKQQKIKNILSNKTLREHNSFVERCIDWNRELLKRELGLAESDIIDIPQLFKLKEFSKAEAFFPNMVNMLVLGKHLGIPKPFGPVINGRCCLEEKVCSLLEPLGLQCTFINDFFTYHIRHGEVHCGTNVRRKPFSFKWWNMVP
Chain of UniProt Q6DWJ6 (whole entry, looked up): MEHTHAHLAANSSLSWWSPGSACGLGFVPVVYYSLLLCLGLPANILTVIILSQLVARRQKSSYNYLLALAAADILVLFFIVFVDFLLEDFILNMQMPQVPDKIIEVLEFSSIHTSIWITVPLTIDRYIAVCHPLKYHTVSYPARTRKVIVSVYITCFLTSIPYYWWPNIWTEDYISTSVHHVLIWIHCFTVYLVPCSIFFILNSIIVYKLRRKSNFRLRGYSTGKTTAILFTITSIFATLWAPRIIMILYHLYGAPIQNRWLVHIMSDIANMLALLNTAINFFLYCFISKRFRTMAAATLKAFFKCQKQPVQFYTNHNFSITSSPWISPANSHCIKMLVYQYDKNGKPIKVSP
Chain of UniProt Q9UH17 (whole entry, looked up): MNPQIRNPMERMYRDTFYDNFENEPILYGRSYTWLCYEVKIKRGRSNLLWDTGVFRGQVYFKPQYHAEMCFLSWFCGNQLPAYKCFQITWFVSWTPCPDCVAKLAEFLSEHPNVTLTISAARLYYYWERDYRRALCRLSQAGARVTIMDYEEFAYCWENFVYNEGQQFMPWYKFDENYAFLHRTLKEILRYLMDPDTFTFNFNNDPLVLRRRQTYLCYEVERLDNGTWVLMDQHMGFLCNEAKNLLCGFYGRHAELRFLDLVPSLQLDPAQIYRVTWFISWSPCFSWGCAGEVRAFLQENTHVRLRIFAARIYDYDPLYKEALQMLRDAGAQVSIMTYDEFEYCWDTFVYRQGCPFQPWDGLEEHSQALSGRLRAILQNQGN
Chain of UniProt P0A988 (whole entry, unmodified, looked up): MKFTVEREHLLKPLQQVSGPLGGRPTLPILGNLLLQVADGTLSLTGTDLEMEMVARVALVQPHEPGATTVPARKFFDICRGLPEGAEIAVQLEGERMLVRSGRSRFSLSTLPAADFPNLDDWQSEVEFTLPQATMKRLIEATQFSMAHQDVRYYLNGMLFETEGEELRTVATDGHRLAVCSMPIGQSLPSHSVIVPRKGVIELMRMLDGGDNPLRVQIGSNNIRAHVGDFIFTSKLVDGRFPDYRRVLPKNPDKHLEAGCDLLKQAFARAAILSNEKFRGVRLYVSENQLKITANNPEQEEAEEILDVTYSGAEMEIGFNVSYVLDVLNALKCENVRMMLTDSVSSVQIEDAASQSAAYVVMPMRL
Chain of UniProt Q13153 (whole entry, looked up): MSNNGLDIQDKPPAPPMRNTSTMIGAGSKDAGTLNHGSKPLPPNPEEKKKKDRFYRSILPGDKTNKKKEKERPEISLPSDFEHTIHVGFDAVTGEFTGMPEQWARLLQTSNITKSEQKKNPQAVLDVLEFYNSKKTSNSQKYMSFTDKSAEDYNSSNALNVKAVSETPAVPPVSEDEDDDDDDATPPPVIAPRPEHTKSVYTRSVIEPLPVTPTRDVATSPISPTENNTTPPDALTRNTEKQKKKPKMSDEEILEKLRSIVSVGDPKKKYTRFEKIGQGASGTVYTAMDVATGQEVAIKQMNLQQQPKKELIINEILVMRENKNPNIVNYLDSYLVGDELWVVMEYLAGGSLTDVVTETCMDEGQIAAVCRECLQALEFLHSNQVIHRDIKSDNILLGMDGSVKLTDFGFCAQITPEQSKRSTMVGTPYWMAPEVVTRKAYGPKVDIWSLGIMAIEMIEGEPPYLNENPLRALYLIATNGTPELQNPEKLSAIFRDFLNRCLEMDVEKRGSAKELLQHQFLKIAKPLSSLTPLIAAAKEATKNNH
Chain of UniProt Q16512 (whole entry, looked up): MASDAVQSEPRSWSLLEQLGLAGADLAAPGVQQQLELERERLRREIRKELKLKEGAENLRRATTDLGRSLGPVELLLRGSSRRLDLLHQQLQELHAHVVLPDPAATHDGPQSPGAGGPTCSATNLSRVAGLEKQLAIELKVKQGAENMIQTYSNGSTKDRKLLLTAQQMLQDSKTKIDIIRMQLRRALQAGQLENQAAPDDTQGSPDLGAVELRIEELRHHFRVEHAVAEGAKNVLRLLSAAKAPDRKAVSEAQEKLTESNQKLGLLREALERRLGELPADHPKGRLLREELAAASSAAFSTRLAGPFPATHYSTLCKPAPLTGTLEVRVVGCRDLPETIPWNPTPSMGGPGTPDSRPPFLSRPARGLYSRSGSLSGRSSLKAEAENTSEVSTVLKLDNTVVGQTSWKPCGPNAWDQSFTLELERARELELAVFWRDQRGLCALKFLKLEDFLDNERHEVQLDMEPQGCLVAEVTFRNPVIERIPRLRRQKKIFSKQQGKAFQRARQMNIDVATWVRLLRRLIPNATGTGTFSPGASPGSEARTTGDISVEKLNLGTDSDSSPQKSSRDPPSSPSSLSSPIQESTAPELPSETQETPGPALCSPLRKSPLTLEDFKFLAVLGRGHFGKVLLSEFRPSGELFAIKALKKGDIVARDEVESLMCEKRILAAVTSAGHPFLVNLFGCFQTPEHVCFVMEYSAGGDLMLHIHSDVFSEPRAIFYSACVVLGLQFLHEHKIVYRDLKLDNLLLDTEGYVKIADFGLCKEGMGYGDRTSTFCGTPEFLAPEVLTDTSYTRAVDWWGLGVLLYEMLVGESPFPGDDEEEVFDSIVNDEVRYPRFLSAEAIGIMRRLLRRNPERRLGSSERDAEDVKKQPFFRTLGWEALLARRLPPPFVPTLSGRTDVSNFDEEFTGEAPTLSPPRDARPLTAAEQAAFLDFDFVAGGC
Chain of UniProt Q12866 (whole entry, looked up): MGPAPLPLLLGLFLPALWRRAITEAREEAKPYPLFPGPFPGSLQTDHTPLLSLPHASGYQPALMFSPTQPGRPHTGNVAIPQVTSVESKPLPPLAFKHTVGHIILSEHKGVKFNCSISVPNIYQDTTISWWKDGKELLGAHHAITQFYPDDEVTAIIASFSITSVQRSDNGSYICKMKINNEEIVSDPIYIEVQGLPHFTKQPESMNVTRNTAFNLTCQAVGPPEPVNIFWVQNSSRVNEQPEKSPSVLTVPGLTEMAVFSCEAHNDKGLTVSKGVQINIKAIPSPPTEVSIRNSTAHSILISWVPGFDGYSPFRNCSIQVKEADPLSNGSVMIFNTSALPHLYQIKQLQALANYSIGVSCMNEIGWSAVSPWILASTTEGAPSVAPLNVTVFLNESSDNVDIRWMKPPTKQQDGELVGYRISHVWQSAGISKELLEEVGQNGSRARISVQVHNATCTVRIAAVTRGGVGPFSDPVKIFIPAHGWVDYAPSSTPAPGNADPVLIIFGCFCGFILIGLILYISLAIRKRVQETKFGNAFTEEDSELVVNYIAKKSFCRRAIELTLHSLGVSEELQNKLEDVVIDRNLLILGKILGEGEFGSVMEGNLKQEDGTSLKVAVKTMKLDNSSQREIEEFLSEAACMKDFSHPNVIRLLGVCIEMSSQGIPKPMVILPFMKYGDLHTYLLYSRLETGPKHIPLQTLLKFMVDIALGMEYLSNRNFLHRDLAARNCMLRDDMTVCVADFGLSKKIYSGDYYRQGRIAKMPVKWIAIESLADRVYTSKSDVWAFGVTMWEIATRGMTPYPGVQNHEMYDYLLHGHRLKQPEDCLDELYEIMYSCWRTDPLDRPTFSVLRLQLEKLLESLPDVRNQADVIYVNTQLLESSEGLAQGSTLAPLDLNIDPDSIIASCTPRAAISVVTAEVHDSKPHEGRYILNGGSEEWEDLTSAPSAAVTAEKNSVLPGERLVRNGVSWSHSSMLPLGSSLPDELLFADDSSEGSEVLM

| SMILES | target or system | assay | test system | setting | how to read | measurement | value |
| --- | --- | --- | --- | --- | --- | --- | --- |
| CC(C)[C@H]1NC(=O)C[C@H]2/C=C/CCSSC[C@@H](NC1=O)C(=O)N[C@H](Cc1cccc3ccccc13)C(=O)NCC(=O)O2 | NTRK2 (Homo sapiens, UniProt Q16620) | enzyme activity, inhibitor | – | 10 µM | – | inhibition | 1.2% |
| O=[N+]([O-])c1ccc2c(N=Nc3ccc4ccccc4c3O)c(O)cc(S(=O)(=O)O)c2c1 | Bcl-2-related protein A1 (Mus musculus, UniProt Q07440, C113S/P104K) | differential scanning fluorimetry | – | 100 µM | – | delta Tm | 37.4 °C |
| O=C(N[C@@H]1c2ccccc2C[C@H]1N1CCCC1)c1ccc(-c2ccnc3[nH]ccc23)nc1 | PKN1 (Homo sapiens, UniProt Q16512) | binding, competition with immobilised ligand | – | 3 µM | – | remaining binding | 8.6% |
| CS(C)(=O)=Nc1ccc(-c2ccc(-c3nc4cc(O[C@@H]5CO[C@H]6[C@@H]5OC[C@H]6O)[nH]c4cc3F)cc2)cc1 | P2X receptor | binding | – | 10 µM | – | inhibition | -9% |
| CC(C)CC(O)(CC(C)C)c1cn(C(=O)N2CCCC2)nn1 | Platelet-activating factor acetylhydrolase IB subunit alpha1 (Pafah1b3, Mus musculus, UniProt Q61205) | probe labelling, inhibitor, competitive ABPP-SILAC, measured: Pafah1b3 | mouse T cells | concentration not given, 4 h, single peptide | reference: treated over DMSO cells, lower = stronger inhibition | SILAC activity ratio | 1.19 and 1.04 and 1.12 and 1.17 and 1.25 and 1 and 1.3 and 1.4 |
| N[C@H](C(=O)N1CCCC1)C1CCN(c2nccc3c(-c4ncc(Cl)cc4Cl)cccc23)CC1 | PADI4 (Homo sapiens, UniProt Q9UM07) | enzyme activity | – | 0.2458 µM, together with: Ca2+ 0.25 mM | – | kcat | 0.101 s⁻¹ and 0.1 s⁻¹ |
| C=CC(=O)Nc1cc(-c2ccc(C(=O)N3CCCC(O)(CC)C3)cc2)ccc1F (stereo not drawn) | DNA dC->dU-editing enzyme APOBEC-3B, C-terminal domain (Homo sapiens, UniProt Q9UH17) | covalent adduct, intact protein MS | – | 1 h, 1-fold, 25 µM | – | adducted protein | 0% |
| O=C(O)c1ccccc1/C=N/Nc1nc(-c2ccccc2Cl)cs1 | PAK1 (Homo sapiens, UniProt Q13153) | enzyme activity, inhibitor | – | 1 µM | – | inhibition | -3.42% |
| CC[C@H](C)[C@@H]1NC(=O)[C@@H](CCCNC(=N)N)NC(=O)[C@@H](NC(=O)[C@@H](CC(C)C)NC(=O)[C@H](C)NC(=O)[C@H](C)NC(=O)[C@@H]2CCCN2C(=O)[C@@H](CC(C)C)NC(=O)[C@@H](NC(=O)[C@@H](CCCNC(=N)N)NC(=O)[C@@H](CC(C)C)NC(=O)[C@@H](CC(C)C)NC(=O)[C@@H](NC(=O)[C@@H](CCCNC(=N)N)NC(=O)[C@@H](CC(C)C)NC(=O)[C@@H](NC(=O)[C@@H](NC(=O)CNC(=O)[C@@H](CC(C)C)NC(=O)[C@@H](N)Cc2ccccc2)[C@@H](C)O)C(C)C)C(C)C)C(C)C)CSSC[C@@H](C(=O)O)NC(=O)[C@@H](CCCNC(=N)N)NC(=O)[C@@H](CCCNC(=N)N)NC(=O)[C@H](Cc2ccccc2)NC1=O | Staphylococcus aureus lipoteichoic acid | lipoteichoic acid binding, BODIPY TR cadaverine displacement | – | one quarter of MIC | – | concentration of LTA interaction | 0.5 µM |
| CN(C)CCCSC(=S)N1CCN(C(=O)/C=C/c2coc3ccccc3c2=O)CC1 | Nucleoprotein (N, Tomato spotted wilt virus, UniProt P25999, R94A/Y184A) | binding, microscale thermophoresis | – | 0.9766 µM | dose series | MST response | 0.357 a.u. |
| CC#CC(=O)NC[C@H](NC(=O)[C@H](CC1CCCCC1)NC(=O)[C@H](CCC(N)=O)NC(C)=O)C(=O)N[C@@H](CC(C)C)C(=O)N[C@@H](Cc1ccccc1)C(=O)O | Beta sliding clamp (Escherichia coli, UniProt P0A988) | binding, isothermal titration calorimetry | – | 25 °C | – | -TΔS | 2.1 kcal/mol |
| COc1ccccc1-c1n[nH]c2nc(NC3CCN(C(=O)Cc4ccc(F)cc4F)CC3)ncc12 | cdc2-related kinase 12 (Leishmania donovani, UniProt A0A3S7WQK2) | competition bead pull-down, measured: LINJ.09.0270 | Leishmania donovani extract | 10 µM | reference: vehicle | remaining binding | 24% |
| O=C1NC2(CC2)COc2ncc(F)cc2[C@H]2COCCN2c2ccn3ncc1c3n2 | – | – | Sprague-Dawley rat, female, blood | oral, 2.5 mg/kg/day, 4 weeks, end of recovery, subacute toxicity | – | mean corpuscular haemoglobin | 18.8 ± 0.7 pg |
| CC[C@H](C)[C@H](NC(=O)[C@H](CCCNC(=N)N)NC(=O)[C@H](CCCNC(=N)N)NC(=O)[C@H](CC(C)C)NC(=O)[C@H](Cc1ccccc1)NC(=O)CNC(=O)CNC(=O)[C@@H](N)Cc1ccc(O)cc1)C(=O)N[C@@H](CCCNC(=N)N)C(=O)N1CCC[C@H]1C(=O)N[C@@H](CCCCN)C(=O)N[C@@H](CC(C)C)C(=O)N[C@@H](CCCCN)C(=O)O | GPR139 (Homo sapiens, UniProt Q6DWJ6) | G protein activation, agonist, BRET, measured: Gα12 | HEK-293T/17 | 40 µM | reference: GαoA response | Emax | 7.44% and 7.25% |
| O=C1NC(=O)c2c1c1cc(F)c[n+]3c1c1c2c2cc(O)ccc2[n]1[Ru-4]312([N]=C=S)[S+]3CC[S+]1CC[S+]2CC3 (stereo not drawn) | MERTK (Homo sapiens, UniProt Q12866) | enzyme activity | – | 100 nM, human enzyme, together with: 10 µM ATP | reference: untreated | remaining activity | 4% |
| CN(C)[C@H]1C[C@@]23CC[C@@]4(O2)C(=CC[C@]2(C)[C@@H](c5ccc6ccncc6c5)CC[C@H]24)C=C3[C@@H](O)[C@@H]1O | ERN1 (Homo sapiens, UniProt O75460) | ATP probe labelling, inhibitor, KiNativ profiling | – | 0.1 µM | – | inhibition | -14.6% |
| CC[C@H](C)[C@@H]1NC(=O)[C@H](CC(C)C)NC(=O)CNC(=O)[C@H](CCCNC(=N)N)NC(=O)[C@H](Cc2c[nH]c3ccccc23)NC(=O)[C@H](CCSC)NC(=O)[C@H](CO)NC(=O)[C@H](CCC(=O)O)NC(=O)[C@H](Cc2ccccc2)NC(=O)[C@H](CC(=O)O)NC(=O)[C@H]([C@@H](C)O)NC(=O)CNC(=O)[C@H](CCC(=O)O)NC(=O)[C@H]([C@@H](C)O)NC(=O)CNC(=O)[C@H](CC(=O)O)NC1=O | MDM2 (Homo sapiens, UniProt Q00987) | MDM2-ligand binding, inhibitor, AlphaLISA competition | – | 0.02441 µM, together with: GST-tagged MDM2 ligand | lower = stronger inhibition | AlphaLISA signal | 11400 a.u. and 10700 a.u. and 11100 a.u. |
| O=C(CCc1ccc(Br)cc1)N[C@H]1CCOC1=O | lasR (Pseudomonas aeruginosa, UniProt P25084) | reporter gene, agonist | Pseudomonas aeruginosa PAO-JP2 | 100 µM, plasI-LVAgfp reporter | reference: OdDHL at same concentration | agonist activity | 8% |
